Measurements from different studies.
Each line is one published result; not all experiments were run side by side. Numbers after ± are the reported error.
SCTR: Secretin receptor (SCTR, Homo sapiens, UniProt P47872)
CTSL: Procathepsin L (CTSL, Homo sapiens, UniProt P07711)
KDR: Vascular endothelial growth factor receptor 2 (KDR, Homo sapiens, UniProt P35968)
PDGFRB: Platelet-derived growth factor receptor beta (PDGFRB, Homo sapiens, UniProt P09619)
MAL12: Alpha-glucosidase MAL12 (MAL12, Saccharomyces cerevisiae S288c, UniProt P53341)

Compound	tested on	test	system	setting	how to read	endpoint	result
COc1ccc(CNc2nc(-c3ccc(OC)cc3)cc(C(F)(F)F)n2)cc1	SCTR	cAMP, agonist	–	–	–	EC50	27000 nM
CC(C)C[C@H](NC(=O)C1CCCCCC1)C(=O)n1nc(Nc2ccccc2/C=C/C(N)=O)nc1N	DNA topoisomerase 1 (TOP1, Homo sapiens, UniProt P11387)	enzyme activity, inhibitor	–	–	–	IC50	31100 nM
C[C@H](Cc1ccc(O)c(O)c1)[C@@H](C)Cc1ccc(O)c(O)c1	Carbamate kinase (Giardia intestinalis, UniProt A8BB85)	enzyme activity, ATP luminescence	–	–	–	IC50	13000 nM
CC(C)CCN(Cc1cccc(C(F)(F)F)c1)c1nc(C#N)nc(N2CCOCC2)n1	CTSL	enzyme activity, inhibitor, fluorescence	–	–	–	IC50	3 nM
C#CCOc1cccc(Oc2nc3c(c(=O)n(CCCO)c(=O)n3C)n2Cc2ccc(C3(C(F)(F)F)N=N3)cc2)c1	Short transient receptor potential channel 4 (TRPC4, Homo sapiens, UniProt Q9UBN4)	calcium signal, inhibitor, fluorescence	–	–	–	IC50	17 nM
Clc1ccc(NN=C(c2ccccc2)c2ccccn2)nc1	Egl nine homolog 1 (EGLN1, Homo sapiens, UniProt Q9GZT9)	enzyme activity, inhibitor	–	–	–	IC50	> 6000 nM
O=C1C2=C(Nc3ccccc3SC2c2ccc(O)c(O)c2)c2ccccc21 (racemic)	Cytochrome b (MT-CYB, Homo sapiens, UniProt P00156)	enzyme activity, inhibitor	–	–	–	IC50	> 5000 nM
COc1cc2nccc(Oc3ccc(NC(=S)N4CCC4)c(Cl)c3)c2cc1C(N)=O	KDR	–	–	–	–	IC50	63.6 nM
O=C(Nc1ccc(-c2nc3ncccc3o2)cc1)c1ccccc1Br	Nucleoside transporter 1 (Plasmodium vivax, UniProt A5K8B0)	yeast growth	purine auxotrophic yeast expressing target	15 to 17 h, together with: adenosine 1 mM	–	IC50	703 ± 178 nM
COc1cc2nccc(Oc3ccc(NC(=S)N4CC(F)(F)C4)c(Cl)c3)c2cc1C(N)=O	KDR	–	–	–	–	IC50	36.1 nM
NC1CCC(Nc2nccc(-c3cccnc3Oc3ccc(NS(=O)(=O)c4ccccc4Cl)cc3F)n2)CC1 (centres unmarked)	Serine/threonine-protein kinase/endoribonuclease IRE1, RNase domain (ERN1, Homo sapiens, UniProt O75460)	RNase activity, inhibitor	–	together with: XBP1 mini-substrate	–	IC50	240 ± 50 nM
COCCOCCOc1cc2nccc(Oc3ccc(NC(=O)NC4CC4)c(Cl)c3)c2cc1C(N)=O	PDGFRB	enzyme activity, inhibitor	–	–	–	IC50	> 100 nM
Nc1nc2c(c(=O)[nH]1)[n+](Cc1ccc(F)c(F)c1)cn2[C@@H]1O[C@H](COP(=O)(O)O)[C@@H](O)[C@H]1O	7-methylguanosine phosphate-specific 5'-nucleotidase (NT5C3B, Homo sapiens, UniProt Q969T7)	m7GMP dephosphorylation, inhibitor, malachite green	–	1 h preincubation, pH 7.5, 30 °C, together with: m7GMP 100 µM	–	IC50	10900 ± 1900 nM
COCCn1cc2c(n1)CN(C(=O)Nc1nc(-c3ccc(F)cc3F)ccc1N)C2	Polyamine deacetylase HDAC10 (HDAC10, Homo sapiens, UniProt Q969S8)	deacetylase activity, inhibitor, recombinant enzyme	–	–	–	IC50	> 30000 nM
COc1ccc(-c2cc(C(F)(F)F)nc(S(=O)(=O)CCC(=O)Nc3ccc(C)cc3)n2)cc1	Bifunctional 3'-5' exonuclease/ATP-dependent helicase WRN (WRN, Homo sapiens, UniProt Q14191)	ATPase activity, inhibitor, ADP-Glo	–	together with: ATP 60 µM	–	IC50	775 nM
COc1cc2nccc(Oc3ccc(NC(=S)NC4CC4)c(C(F)(F)F)c3)c2cc1C(N)=O	KDR	–	–	–	–	IC50	16.2 nM
[64Cu+2].c1ccc(CNCc2ccc(CN3CCCN4CCNCCCN(CC4)CC3)cc2)nc1	CXCR4 (human)	–	NOD/SCID mice, U87 xenografts, U87 control tumour	240 min post-injection	–	tissue uptake	2.72 ± 0.85 %ID/g
COc1cc(CCC(C)=O)ccc1O	mouse mAb 1-D6	antibody binding, indirect competitive ELISA	–	together with: coating antigen 3-OVA	–	IC50	0.0236 µg/mL
COc1ccc(O[C@@H]2O[C@H](COS(=O)(=O)O)[C@H](OS(=O)(=O)O)[C@H](O[C@@H]3O[C@H](C(=O)OCc4ccccc4)[C@@H](O[C@@H]4O[C@H](COS(=O)(=O)O)[C@H](OS(=O)(=O)O)[C@H](O[C@@H]5O[C@H](C(=O)OCc6ccccc6)[C@@H](OS(=O)(=O)O)[C@H](OCc6ccccc6)[C@H]5OC(=O)c5ccccc5)[C@H]4NC(=O)C(F)(F)F)[C@H](OCc4ccccc4)[C@H]3OC(=O)c3ccccc3)[C@H]2NC(=O)C(F)(F)F)cc1	Midkine (Homo sapiens, UniProt P21741)	heparin hexasaccharide binding, inhibitor, fluorescence polarisation competition	–	together with: fluorescein-labelled hexasaccharide probe	–	IC50	3800 nM
C#Cc1cccc(Nc2ncnc3cc(OC)c(OCCCN4CCOCC4)cc23)c1	Epidermal growth factor receptor (EGFR, Homo sapiens, UniProt P00533, L858R/T790M)	enzyme activity, inhibitor	–	30 min, T790M/L858R mutant, together with: ATP 80.8 µM	–	IC50	230 nM
CN(CC(=O)c1ccc2[nH]c(=O)[nH]c2c1)Cc1ccco1	DNA dC->dU-editing enzyme APOBEC-3A (Homo sapiens, UniProt P31941)	enzyme activity, inhibitor	–	pH 6	–	IC50	60000 nM
Cc1ccc(CNC(=O)[C@H](CCc2ccccc2)NC(=O)[C@H](CCc2ccccc2)NC(=O)Cc2cccc(Oc3ccccc3)c2)cc1	PSMB6/PSMB7 (Homo sapiens, UniProt P28072+Q99436)	inhibitor	–	–	–	IC50	83000 nM

Compound	tested on	test	system	setting	how to read	endpoint	result
CCCc1nc2ccc(N(Cc3ccco3)C(=O)c3ccccc3)cc2c(=O)n1Cc1ccc(-c2ccccc2-c2nnn[nH]2)cc1	Type-2 angiotensin II receptor (AGTR2, Homo sapiens, UniProt P50052, F308A)	ligand displacement, radioligand	–	cell membranes	–	Ki	43.7 nM
CCCCCCCCCCCC(=O)NCCC(=O)N[C@H](CCCNC(=N)N)C(=O)N[C@H](CCCNC(=N)N)C(=O)N[C@H](CCCNC(=N)N)C(=O)N[C@H](CCCNC(=N)N)C(=O)N[C@H](CCCNC(=N)N)C(=O)N[C@@H](CCCNC(=N)N)C(=O)N[C@@H](CCCNC(=N)N)C(=O)N[C@@H](CCCNC(=N)N)C(=O)N[C@@H](CCCNC(=N)N)C(=O)N[C@@H](CCCCNC(=S)Nc1ccc2c(c1)C(=O)OC21c2ccc(O)cc2Oc2cc(O)ccc21)C(N)=O	Jurkat	flow cytometry	–	10 µM, 48 h, loaded 10 min at 37 °C, then washed	reference: 0 h, higher = more retained	retained fluorescence	~20%
O=S(=O)(Nc1cc(F)c(Oc2ncccc2-c2ccnc(N[C@H]3CCCNC3)n2)cc1Cl)c1ccccc1Cl	Serine/threonine-protein kinase/endoribonuclease IRE2, RNase domain (ERN2, Homo sapiens, UniProt Q76MJ5)	RNase activity, inhibitor	–	together with: XBP1 mini-substrate	–	IC50	430 ± 70 nM
COc1ccc(-c2cc(C(F)(F)F)nc(NCc3ccccc3)n2)cc1OC	SCTR	cAMP, agonist	–	–	–	EC50	27000 nM
CCN(CC)CCNC(=O)c1cc2c(Oc3ccc(NC(=S)NC4CC4)c(Cl)c3)ccnc2cc1OC	PDGFRB	–	–	–	–	IC50	102 nM
COC(=O)C[C@H](NC(=O)[C@H](C)NC(=O)[C@@H](NC(=O)OCc1ccccc1)C(C)C)C(=O)CF	Caspase-10 (CASP10, Homo sapiens, UniProt Q92851)	enzyme activity, inhibitor, fluorescence	–	–	–	IC50	116 nM
O=C1C=C(CCc2ccc(OC3OC(CO)C(O)C(O)C3O)cc2)CCC1 (centres unmarked)	MAL12	enzyme activity, inhibitor, absorbance	–	–	–	IC50	> 100000 nM
CCCCC/C=C/C(=O)CCc1ccc(O)c(OC)c1	mouse mAb 1-D6	antibody binding, indirect competitive ELISA	–	together with: coating antigen 3-OVA	–	IC50	1.03 µg/mL
CCOC(=O)N1CCC(Oc2nc3c(c(=O)n(C)c(=O)n3C)n2Cc2cccc(C)c2)CC1	Aldehyde dehydrogenase 1A1 (ALDH1A1, Homo sapiens, UniProt P00352)	–	–	–	–	IC50	213 ± 48 nM
NS(=O)(=O)Nc1ncnc(OCCOc2ncc(Br)cn2)c1-c1ccc(Br)cc1	–	metabolite formation	male Sprague-Dawley rat, liver microsomes	450 mg/kg daily for 4 weeks	–	Vmax	405 ± 36 pmol/min/mg
O=C1CC(c2ccc(OC3OC(CO)C(O)C(O)C3O)cc2)Oc2cc(O)cc(O)c21 (centres unmarked)	MAL12	enzyme activity, inhibitor, absorbance	–	–	–	IC50	> 100000 nM
Oc1c(C(Nc2nccs2)c2ccccc2OCc2ccccc2)ccc2cccnc12 (centres unmarked)	Genome polyprotein, NS2B-NS3 protease (Dengue virus type 2, UniProt P14340)	enzyme activity, inhibitor	–	0.1% CHAPS, together with: Bz-Nle-Lys-Arg-Arg-AMC substrate	–	IC50	3670 ± 80 nM
CC(C)CCN(CCc1ccccc1)c1nc(C#N)nc(N2CCOCC2)n1	CTSL	enzyme activity, inhibitor, fluorescence	–	–	–	IC50	86 nM
[N-]=[N+]=NCCC(=O)NCCCC[C@@H]1NC(=O)[C@@H](Cc2ccccc2)NC(=O)[C@H](CC(=O)O)NC(=O)CNC(=O)[C@H](CCCNC(=N)N)NC1=O	Integrin alpha-V/beta-3 (Homo sapiens, UniProt P05106+P06756, del719-788)	ligand displacement, ELISA	–	–	–	IC50	0.81 nM
Clc1ccccc1C(Nc1nccs1)(c1ccccc1)c1ccccc1	Intermediate conductance calcium-activated potassium channel protein 4 (KCNN4, Homo sapiens, UniProt O15554)	ion current, inhibitor, patch clamp	–	–	–	IC50	15000 nM
O=Cc1c(O)ccc2ccccc12	HUVEC	RNA sequencing, refers to: VIP	–	75 µM, 24 h	reference: DMSO	log2 fold change	2.77
COc1cc2nccc(Oc3ccc(NC(=S)NCc4ccncc4)c(Cl)c3)c2cc1C(N)=O	PDGFRB	–	–	–	–	IC50	62.8 nM
O=C1c2oc3cc(O)c(O)cc3c2C(=O)c2oc3cc(O)c(O)cc3c21	Cytochrome P450 2B6 (CYP2B6, Homo sapiens, UniProt P20813)	enzyme activity, inhibitor	human, liver microsomes	1 h, pH 7.4	–	IC50	8500 nM
[64Cu+2].c1cnc(CNCc2ccc(CN3CCCN4CCNCCCN(CC4)CC3)cc2)nc1	CXCR4 (human)	–	NOD/SCID mice, U87 xenografts, small intestine	60 min post-injection	–	tissue uptake	4.86 ± 0.52 %ID/g
COc1cc2nccc(Oc3ccc(NC(=S)NC(C)C(F)(F)F)c(Cl)c3)c2cc1C(N)=O (centres unmarked)	PDGFRB	–	–	–	–	IC50	509 nM
CCc1nc2ccc(N(Cc3ccccc3)C(=O)c3cccs3)cc2c(=O)n1Cc1ccc(-c2ccccc2-c2nn[nH]n2)cc1	Type-2 angiotensin II receptor (AGTR2, Homo sapiens, UniProt P50052, M128A)	ligand displacement, radioligand	–	cell membranes	–	Ki	25.1 nM
CCOC(=O)c1cc2cc3cc(Cl)ccc3nc2s1	Tyrosine-protein phosphatase non-receptor type 11 (PTPN11, Homo sapiens, UniProt Q06124)	enzyme activity, inhibitor, fluorescence	–	–	–	IC50	12200 nM

Repeated from above:
Compound	tested on	test	system	setting	how to read	endpoint	result
Cc1ccc(CNC(=O)[C@H](CCc2ccccc2)NC(=O)[C@H](CCc2ccccc2)NC(=O)Cc2cccc(Oc3ccccc3)c2)cc1	PSMB6/PSMB7 (Homo sapiens, UniProt P28072+Q99436)	inhibitor	–	–	–	IC50	83000 nM
CCCc1nc2ccc(N(Cc3ccco3)C(=O)c3ccccc3)cc2c(=O)n1Cc1ccc(-c2ccccc2-c2nnn[nH]2)cc1	Type-2 angiotensin II receptor (AGTR2, Homo sapiens, UniProt P50052, F308A)	ligand displacement, radioligand	–	cell membranes	–	Ki	43.7 nM
CCCCCCCCCCCC(=O)NCCC(=O)N[C@H](CCCNC(=N)N)C(=O)N[C@H](CCCNC(=N)N)C(=O)N[C@H](CCCNC(=N)N)C(=O)N[C@H](CCCNC(=N)N)C(=O)N[C@H](CCCNC(=N)N)C(=O)N[C@@H](CCCNC(=N)N)C(=O)N[C@@H](CCCNC(=N)N)C(=O)N[C@@H](CCCNC(=N)N)C(=O)N[C@@H](CCCNC(=N)N)C(=O)N[C@@H](CCCCNC(=S)Nc1ccc2c(c1)C(=O)OC21c2ccc(O)cc2Oc2cc(O)ccc21)C(N)=O	Jurkat	flow cytometry	–	10 µM, 48 h, loaded 10 min at 37 °C, then washed	reference: 0 h, higher = more retained	retained fluorescence	~20%
O=S(=O)(Nc1cc(F)c(Oc2ncccc2-c2ccnc(N[C@H]3CCCNC3)n2)cc1Cl)c1ccccc1Cl	Serine/threonine-protein kinase/endoribonuclease IRE2, RNase domain (ERN2, Homo sapiens, UniProt Q76MJ5)	RNase activity, inhibitor	–	together with: XBP1 mini-substrate	–	IC50	430 ± 70 nM
COc1ccc(-c2cc(C(F)(F)F)nc(NCc3ccccc3)n2)cc1OC	SCTR	cAMP, agonist	–	–	–	EC50	27000 nM
CCN(CC)CCNC(=O)c1cc2c(Oc3ccc(NC(=S)NC4CC4)c(Cl)c3)ccnc2cc1OC	PDGFRB	–	–	–	–	IC50	102 nM
